Results of several laboratories.
Numbered parts are unrelated; each lists some results of a single study.
Sequence of UniProt P16220 (whole entry, looked up): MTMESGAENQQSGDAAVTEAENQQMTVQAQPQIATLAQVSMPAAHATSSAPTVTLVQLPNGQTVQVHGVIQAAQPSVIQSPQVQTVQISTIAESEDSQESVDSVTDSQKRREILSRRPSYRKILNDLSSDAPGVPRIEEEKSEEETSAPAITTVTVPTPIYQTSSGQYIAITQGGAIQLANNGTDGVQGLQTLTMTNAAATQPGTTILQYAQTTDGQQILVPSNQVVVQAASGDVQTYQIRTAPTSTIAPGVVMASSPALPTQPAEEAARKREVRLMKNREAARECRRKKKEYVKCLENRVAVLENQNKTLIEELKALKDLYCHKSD
Sequence of UniProt P48431 (19-118, looked up): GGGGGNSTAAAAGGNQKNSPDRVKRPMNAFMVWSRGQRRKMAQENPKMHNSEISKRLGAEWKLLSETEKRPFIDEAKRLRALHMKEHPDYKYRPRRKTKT
Sequence of UniProt P14921 (whole entry, unmodified, looked up): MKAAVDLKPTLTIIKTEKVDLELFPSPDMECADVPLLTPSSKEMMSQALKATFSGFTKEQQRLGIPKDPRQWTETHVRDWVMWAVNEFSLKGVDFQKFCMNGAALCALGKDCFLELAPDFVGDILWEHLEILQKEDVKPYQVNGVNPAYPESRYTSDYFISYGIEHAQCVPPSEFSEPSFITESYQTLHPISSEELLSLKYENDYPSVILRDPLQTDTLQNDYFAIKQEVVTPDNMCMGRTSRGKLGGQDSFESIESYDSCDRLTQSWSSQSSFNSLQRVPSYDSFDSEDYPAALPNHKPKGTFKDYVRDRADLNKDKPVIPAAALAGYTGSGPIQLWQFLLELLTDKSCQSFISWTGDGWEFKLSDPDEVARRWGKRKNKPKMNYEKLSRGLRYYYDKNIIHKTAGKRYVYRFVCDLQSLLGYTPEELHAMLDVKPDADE
Sequence of UniProt Q9WVH4 (31-263, looked up): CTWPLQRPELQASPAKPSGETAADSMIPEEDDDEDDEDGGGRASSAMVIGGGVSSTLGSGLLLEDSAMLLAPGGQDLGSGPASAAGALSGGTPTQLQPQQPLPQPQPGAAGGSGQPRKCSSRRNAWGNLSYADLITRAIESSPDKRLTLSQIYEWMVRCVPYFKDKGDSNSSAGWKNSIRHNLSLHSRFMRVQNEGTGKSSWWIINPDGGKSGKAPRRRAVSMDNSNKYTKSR
Sequence of UniProt Q9Y261 (142-269, looked up): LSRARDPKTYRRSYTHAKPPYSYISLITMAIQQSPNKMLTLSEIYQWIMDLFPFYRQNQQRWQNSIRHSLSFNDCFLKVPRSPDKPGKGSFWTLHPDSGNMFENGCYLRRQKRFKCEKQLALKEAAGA

Block 1
Target: Centromere-binding protein 1, full length, N-terminal tag (CBF1, Saccharomyces cerevisiae, UniProt P17106, residues 1-351)
Sequence of UniProt P17106 (whole entry, looked up): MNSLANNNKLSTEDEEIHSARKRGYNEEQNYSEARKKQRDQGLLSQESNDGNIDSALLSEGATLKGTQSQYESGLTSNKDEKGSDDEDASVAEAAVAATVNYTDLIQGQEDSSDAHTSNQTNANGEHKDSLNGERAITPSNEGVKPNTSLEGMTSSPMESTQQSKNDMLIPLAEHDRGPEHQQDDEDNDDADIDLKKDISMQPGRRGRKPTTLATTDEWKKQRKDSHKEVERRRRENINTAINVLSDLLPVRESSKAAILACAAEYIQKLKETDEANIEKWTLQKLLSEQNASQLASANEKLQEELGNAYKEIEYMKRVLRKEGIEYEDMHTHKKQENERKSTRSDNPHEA
Method: protein-binding microarray
Molecule type: double-stranded DNA, one strand shown
Medium: in vitro
Tested at: 0.8 µM
Notes: whole 60-bp probe, no competitor
Direction: higher = stronger binding
Shared flanks, not repeated: … GTCTTGATTCGCTTGACGCTGCTG
| Sequence | fluorescence intensity [a.u.] |
| --- | --- |
| GAACCAACTGTTTGCATGGTGGTGTTGATTGCATAG | 494 |
| CTAACACGCATTTACCACGAGAAGACAGCAATATTC | 597 |
| GAATAAATTTCACGTGATGCGGTAGTTTTTTTTTAG | 13800 |
| GAATAATTTTTTTTTACCGTGACGCGTCTCACCTAG | 611 |
| CTAACGTCATAGAAAAACCACGTGAAAAAAAAATTC | 5330 |
| TGTACGAAGCTATAATGCGTGCTTATAGTAGTTAGG | 538 |
| GAAAGTTTTTCATTTCACGATATTTAGCTGCAGTAG | 621 |
| GAAGCGTGTCAGCGTGGTCGGCGTACGTAGCAATAG | 595 |

Block 2
Target: Replicase polyprotein 1ab, nsp13 helicase (rep, Severe acute respiratory syndrome coronavirus 2, UniProt P0DTD1)
Mode: inhibitor
Tested at: 20 µM
| SMILES | inhibition [%] |
| --- | --- |
| CC(C)=CCC/C(C)=C/CC/C(C)=C/CCC(=O)OC/C=C(\C)CCC=C(C)C | -17.3 |
| OCC(O)CN1CCN(c2ccccc2)CC1 (centres unmarked) | 0.68 |
| O=c1n(Cl)c(=O)n(Cl)c(=O)n1Cl | 3.66 |
| O=C(O)c1ccccc1NCCc1ccccc1 | 13.8 |
| Oc1ccccc1 | -1.02 |
| CC(C)C(N)=O | 4.41 |
| COc1ccc(CCC(=O)Nc2nc3ccc(Cl)cc3s2)cc1OC | 0.82 |
| O=C1C[C@@H]2OCC=C3CN4CC[C@]56c7ccccc7N1[C@H]5[C@H]2[C@H]3C[C@H]46 | -1.98 |
| CSCC1CN(/N=C/c2ccc([N+](=O)[O-])o2)C(=O)O1 (centres unmarked) | 4.05 |
| NC(N)=NC(N)=Nc1ccccc1 | 2.88 |
| COc1ccc2c(c1)/C(=C/c1cnc[nH]1)C(=O)N2 | 12.7 |
| CNC(=O)[C@@H](NC(=O)[C@H](CC(C)C)[C@H](O)C(=O)NO)C(C)(C)C | 1.78 |
| CC1=C(C(=O)OC2CCCCC2)C(c2ccc([N+](=O)[O-])cc2)C2=C(CC(C)(C)CC2=O)N1 (centres unmarked) | 3.99 |
| CC(=O)O[C@]1(C(C)=O)CC[C@H]2[C@@H]3CCC4=CC(=O)CCC4=C3[C@@H](c3ccc(N(C)C)cc3)C[C@@]21C | 11 |
| CCc1ccc(OCc2ccccc2C(=O)Nc2ccc3nc(C)cc(N)c3c2)cc1 | 3.83 |
| COc1ccc(CN(CCN(C)C)c2ncccn2)cc1 | 1.27 |
| C=CCOc1ccc(CC(=O)O)cc1Cl | 5.36 |
| COc1cc(O)c(C(=O)c2ccccc2)cc1S(=O)(=O)O | -2.95 |
| CC[C@H](C)[C@@H]1NC(=O)[C@H](Cc2ccc(OC)cc2)NC(=O)CCCSC[C@@H](C(=O)N2CCC[C@H]2C(=O)N[C@@H](CC(C)C)C(=O)NCC(N)=O)NC(=O)[C@H](CC(N)=O)NC(=O)[C@H](CCC(N)=O)NC1=O | 6.14 |
| CCN(CC)CCOc1ccc(Nc2ncc3cc(-c4c(Cl)cccc4Cl)c(=O)n(C)c3n2)cc1 | 11.7 |
| O=c1c2ccccc2oc2ccccc12 | 3 |
| Cc1cc(SCc2sc(-c3ccc(C(F)(F)F)cc3)nc2C)ccc1OCC(=O)O | 9.61 |
| COc1cc(C)c2c(Oc3cccc(C(F)(F)F)c3)c(OC)cc(NC(C)CCCN)c2n1 (centres unmarked) | 9.09 |
| Cc1cc(CC(C)CC(C)(C)C)n(O)c(=O)c1 (centres unmarked) | -1.14 |
| Cc1c(CN2CCN(C(=O)[C@H](C)O)CC2)sc2c(N3CCOCC3)nc(-c3cnc(N)nc3)nc12 | 0.92 |

Block 3
Cell line: HEK-293T
Effect on: pseudovirus infection
Method: FDA-approved drug library screen
Organism: VSV pseudotyped with SARS-CoV-2 spike
Tested at: 10 µM
Time: 16 h
Relative to: vehicle-treated
| Compound | GFP-positive cells [%] |
| --- | --- |
| COc1ncnc(NS(=O)(=O)c2ccc(N)cc2)c1OC | 68.9 |
| Cc1nc2n(c(=O)c1CCN1CCC(c3noc4cc(F)ccc34)CC1)CCCC2O (centres unmarked) | 91 |
| N[C@H]1CON=C1O | 82.2 |
| OCc1ccccc1 | 89.6 |

Block 4
Target: Replicase polyprotein 1ab, main protease (rep, Severe acute respiratory syndrome coronavirus 2, UniProt P0DTD1)
Effect on: enzyme activity
Mode: inhibitor
Tested at: 20 µM
Notes: hit confirmation
| Structure (SMILES) | inhibition [%] |
| --- | --- |
| COc1ccc([N+](=O)[O-])c(S(=O)(=O)c2ccc(Cl)cc2)n1 | 94.1 |
| O=C(O)/C=C/c1ccc(O)c(O)c1 | -15.5 |
| CCN(CC)C(=S)SSC(=S)N(CC)CC | 99.9 |

Block 5
Target: Histone acetyltransferase KAT6A, both winged helices, GST fusion (KAT6A, Homo sapiens, UniProt Q92794, residues 1-181)
Method: protein binding microarray
Molecule type: double-stranded DNA, one strand shown
Medium: in vitro
Tested at: not given
Notes: 8-mer, flanks averaged, mean of 2 arrays, mostly near background
Relative to: not given
Direction: higher = stronger binding
Construct (chain): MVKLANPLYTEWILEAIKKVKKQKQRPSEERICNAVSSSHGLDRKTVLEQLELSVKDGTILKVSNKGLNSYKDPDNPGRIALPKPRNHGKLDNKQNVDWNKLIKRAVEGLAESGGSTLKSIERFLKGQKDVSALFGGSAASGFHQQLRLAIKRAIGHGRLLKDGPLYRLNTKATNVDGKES
| Sequence | E-score |
| --- | --- |
| AATATCGC | 0.125 |
| CCCACACG | 0.0694 |
| CTGCACAA | -0.0628 |
| ACGCAGCC | 0.0438 |
| ACGTTAAG | 0.0602 |
| CATGTCCA | -0.00761 |
| GGCCTCCA | 0.0157 |
| GAAGGGCA | -0.162 |

Further values, each from its own experiment
Method: protein-binding microarray
Medium: in vitro
Tested at: not given
Direction: higher = stronger binding
| Sequence | target | molecule type | notes | relative to | measurement | result |
| --- | --- | --- | --- | --- | --- | --- |
| AATGTAT | Transcription factor SOX-2, HMG box (SOX2, Homo sapiens, UniProt P48431, residues 19-118) | double-stranded DNA, one strand shown | k-mer, scored over probes, only values ≥0.25 | – | E-score | 0.327 |
| GAGGCCATGTCGCCAACGCCTCCTGGCGTTGGCGACATGGCCTCACACTC | FOXO3, forkhead domain (mouse, UniProt Q9WVH4, residues 31-263) | hairpin DNA | whole hairpin DNA, median over replicate spots | not given | median fluorescence | 4920 a.u. |
| ATATCAAG | Hepatocyte nuclear factor 3-beta, forkhead domain (FOXA2, Homo sapiens, UniProt Q9Y261, residues 142-269) | double-stranded DNA, one strand shown | k-mer, scored over probes, only values ≥0.25 | – | E-score | 0.309 |
| ACCACGT | Cyclic AMP-responsive element-binding protein 1 (CREB1, Homo sapiens, UniProt P16220, residues 1-327, full length assumed) | double-stranded DNA, one strand shown | k-mer, scored over probes, only values ≥0.25 | – | E-score | 0.282 |
| ATTGTTAC | Protein C-ets-1 (ETS1, Homo sapiens, UniProt P14921, residues 1-441, K379A, full length assumed) | double-stranded DNA, one strand shown | k-mer, scored over probes, only values ≥0.25 | – | E-score | 0.279 |

A few entries again (further values, each from its own experiment):
| Sequence | target | molecule type | notes | relative to | measurement | result |
| --- | --- | --- | --- | --- | --- | --- |
| AATGTAT | Transcription factor SOX-2, HMG box (SOX2, Homo sapiens, UniProt P48431, residues 19-118) | double-stranded DNA, one strand shown | k-mer, scored over probes, only values ≥0.25 | – | E-score | 0.327 |
| GAGGCCATGTCGCCAACGCCTCCTGGCGTTGGCGACATGGCCTCACACTC | FOXO3, forkhead domain (mouse, UniProt Q9WVH4, residues 31-263) | hairpin DNA | whole hairpin DNA, median over replicate spots | not given | median fluorescence | 4920 a.u. |
| ATATCAAG | Hepatocyte nuclear factor 3-beta, forkhead domain (FOXA2, Homo sapiens, UniProt Q9Y261, residues 142-269) | double-stranded DNA, one strand shown | k-mer, scored over probes, only values ≥0.25 | – | E-score | 0.309 |
| ACCACGT | Cyclic AMP-responsive element-binding protein 1 (CREB1, Homo sapiens, UniProt P16220, residues 1-327, full length assumed) | double-stranded DNA, one strand shown | k-mer, scored over probes, only values ≥0.25 | – | E-score | 0.282 |
| ATTGTTAC | Protein C-ets-1 (ETS1, Homo sapiens, UniProt P14921, residues 1-441, K379A, full length assumed) | double-stranded DNA, one strand shown | k-mer, scored over probes, only values ≥0.25 | – | E-score | 0.279 |
